Measured values of several laboratories.
Numbered parts are unrelated; each lists some results of a single study.

Study 1 — technique: RNA Bind-n-Seq; molecule type: RNA; sample: in vitro; tested at: 365 nM; relative to: no-protein control; reading: higher = stronger binding; endpoint: RBNS enrichment (R)
Target: RNA binding protein fox-1 homolog 2, RRM domain, GST-SBP tag (RBFOX2, Homo sapiens, UniProt O43251-10, residues 100-194)
Notes: natural RNA segment, single round, ends assumed
All sequences stand within: GGGAGUUCUACAGUCCGACGAUC … UGGAAUUCUCGGGUGCCAA
UGUGGUUGUAAAAGCAAGCCCAGGAAAGGUGACCUCAUUCUCACGGACUGUGCUGUGCAGCUUUCCAAGUGUGUAUUAAAGUGACGCAUCAGUGGGUAGCUUGGGUUCCG: 0.624
UCUGAUGUGGCAUUUUCGUCAUCUGAAGCAUGAGUGACAAGUUGGGAAUGAUGUGGUGAUUUAGAAUGCAGUAUUGGCCAAGUCCAAGUUGUCAACUUAAGCGUCUGUUU: 10.8
UAAACUGUGAACUCUGCCCAUGUGUCAGGAGUGGCUGUCUCUGGUCUCUUCCUUUAGCUGACAAGGACACUCCUGAGGUCUUUGUUCUCACUGUAUUCUUUUUAUCCUGG: 0.652
AAAAGUUUUUGACUGGAAAUACACUGUUUUGCAUCAAGCUGGAGUACUGGAUGGAAAACUCUACAAUAACAUUUUGUGCAUAAUUGUAGAAAUACAGAUUUUGUUGUUAU: 0.843
UCCUUCUAGGAAGGGGCUUUCAGGAGAGAGAGUUCUUGUGCUGUCUGAGAAGUGCAGGGGAGACAAAUGAAUGCAGUGUCCAUCCAGCUCUGGGUUUUCUUUAUCCUGCC: 0.747
AAAUCAGGCAAAAUUUGUUCCUGAAGUUGCUUUUUACCCCAGCAGACAUAAACUGCGAUAGCUUCAGCUUGCACUGUGGAUUUUCUGUAUAGAAUAUAUAAAACAUAACU: 0.529
UGAGUCAACAGACAUCAAAAUUACUGUGUACACACUUGAACAGAUGAAGAUCUUGGAUGAGCCCGUGGUCUUUUGUGUCAUCUACGAAGCUGUGGGACUAAGCAGCUGUA: 0.487
CCAUAUGGAGGGCAAUUCAGCCAAUGUCCCUGAAGAAUUAAAAAAAAAAAAAUUCCACUAGACCACCAUCCCUUUUGUUUUGGGAUUUUUUUUCAACCUUUUCCAUUUGC: 0.787

Study 2 — technique: universal PBM; molecule type: double-stranded DNA, one strand shown; sample: in vitro; tested at: 600 nM; reading: higher = stronger binding; endpoint: E-score
Target: Sal-like protein 4, full length isoform A (SALL4, Homo sapiens, UniProt Q9UJQ4, residues 1-1053)
Sequence of UniProt Q9UJQ4 (whole entry, looked up): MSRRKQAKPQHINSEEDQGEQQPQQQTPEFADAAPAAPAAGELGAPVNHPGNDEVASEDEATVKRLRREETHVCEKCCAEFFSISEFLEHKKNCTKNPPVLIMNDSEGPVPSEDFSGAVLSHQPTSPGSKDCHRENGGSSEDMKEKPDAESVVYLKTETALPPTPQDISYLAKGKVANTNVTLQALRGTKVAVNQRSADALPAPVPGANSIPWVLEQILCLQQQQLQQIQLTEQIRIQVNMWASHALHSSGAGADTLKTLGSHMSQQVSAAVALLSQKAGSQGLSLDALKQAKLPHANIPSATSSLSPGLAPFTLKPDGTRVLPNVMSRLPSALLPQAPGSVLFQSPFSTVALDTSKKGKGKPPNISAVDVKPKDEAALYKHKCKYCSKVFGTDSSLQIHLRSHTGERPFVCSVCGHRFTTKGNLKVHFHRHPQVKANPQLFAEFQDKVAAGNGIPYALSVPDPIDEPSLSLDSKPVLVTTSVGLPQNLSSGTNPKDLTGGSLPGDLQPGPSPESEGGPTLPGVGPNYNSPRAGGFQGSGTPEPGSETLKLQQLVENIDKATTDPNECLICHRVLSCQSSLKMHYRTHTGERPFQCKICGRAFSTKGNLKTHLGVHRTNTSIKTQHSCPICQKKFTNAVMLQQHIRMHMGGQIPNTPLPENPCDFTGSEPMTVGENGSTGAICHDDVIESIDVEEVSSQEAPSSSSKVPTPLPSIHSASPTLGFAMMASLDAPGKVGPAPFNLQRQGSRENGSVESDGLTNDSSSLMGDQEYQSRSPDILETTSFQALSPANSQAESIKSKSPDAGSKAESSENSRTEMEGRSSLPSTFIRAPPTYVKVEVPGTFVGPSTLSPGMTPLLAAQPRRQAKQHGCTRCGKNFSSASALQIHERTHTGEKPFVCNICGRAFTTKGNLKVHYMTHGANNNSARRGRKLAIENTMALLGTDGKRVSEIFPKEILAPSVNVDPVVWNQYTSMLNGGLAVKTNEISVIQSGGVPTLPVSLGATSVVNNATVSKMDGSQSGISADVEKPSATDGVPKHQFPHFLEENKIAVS
Notes: 8-mer, flanks averaged, mean of replicates
ATCGCTTA: -0.00697
AAGTTGCA: 0.128
GTGGAGAA: -0.0209
CACTGTCC: -0.12
GTGGACAC: -0.132
ATTGTCAA: 0.24
CAACCTAA: 0.0339

Study 3 — technique: DNA-protein interaction ELISA; molecule type: double-stranded DNA, one strand shown; sample: in vitro, bacterial lysate; tested at: not given; notes: whole dsDNA probe, crude lysate protein; relative to: highest signal in screen; reading: higher = stronger binding; endpoint: relative absorbance
Target: Probable WRKY transcription factor 11, DNA-binding domain (WRKY11, Arabidopsis thaliana, UniProt Q9SV15, residues 228-325)
Sequence of UniProt Q9SV15 (228-325, looked up): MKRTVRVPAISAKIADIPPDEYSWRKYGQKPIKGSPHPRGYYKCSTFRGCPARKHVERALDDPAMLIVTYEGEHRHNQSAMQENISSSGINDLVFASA
AAAAAACGCATCATAGCTACGCCCCAAAAA: 16.1 % of maximum
AAAAAAGGCGTCTGACTGTAACTCGTAAAA: 32 % of maximum
AAAAAATGACCAGGCCTCGAGCAAAAA: 17.9 % of maximum
AAAAAACAACTTGGAGGATTTACAGCAAAA: 18.2 % of maximum
AAAAAATCAAAACAACGATGCCGTTAAAAA: 19.3 % of maximum
AAAAAAGTCGTCACGCACGTGAATACAAAA: 32.9 % of maximum
AAAAAAATCACGGTTCGACCTCCAGCAAAA: 17.6 % of maximum
AAAAAATCTGTTCTCGTTTCCCCTTCAAAA: 17.9 % of maximum
AAAAAAAGTAGTTACTGCGAAAGTCTAAAA: 17.9 % of maximum

Single results of other studies
PhoQ, residues 284 288 289 292 302 303 AGHLVA  fold induction (PhoP, residues 12 14 15 18 19 NQGLL (Escherichia coli, UniProt P23836); Sort-seq, measured: YFP reporter; E. coli; PhoQ-PhoP variant library, together with: 10 µM Mg2+; relative to: high Mg2+ state, higher = stronger signaling): 3.24

For quick reference, copied from above (study 3):
AAAAAATGACCAGGCCTCGAGCAAAAA: 17.9 % of maximum
AAAAAACAACTTGGAGGATTTACAGCAAAA: 18.2 % of maximum
AAAAAATCAAAACAACGATGCCGTTAAAAA: 19.3 % of maximum
